# Experimental data gathered from unrelated publications.
# Numbered parts are unrelated; each lists some results of a single study. Substitutions count along the parent as printed.

# Series 1 — method: RNA Bind-n-Seq; form: RNA; medium: in vitro; tested at: 1 µM; notes: whole 134-nt RNA, ends assumed; with: 150 mM KCl; baseline: input library; reading: higher = stronger binding
# Target: Ras GTPase-activating protein-binding protein 1, C-terminal RGG region (G3BP1, Homo sapiens, UniProt Q13283)
# Chain of UniProt Q13283 (whole entry, looked up): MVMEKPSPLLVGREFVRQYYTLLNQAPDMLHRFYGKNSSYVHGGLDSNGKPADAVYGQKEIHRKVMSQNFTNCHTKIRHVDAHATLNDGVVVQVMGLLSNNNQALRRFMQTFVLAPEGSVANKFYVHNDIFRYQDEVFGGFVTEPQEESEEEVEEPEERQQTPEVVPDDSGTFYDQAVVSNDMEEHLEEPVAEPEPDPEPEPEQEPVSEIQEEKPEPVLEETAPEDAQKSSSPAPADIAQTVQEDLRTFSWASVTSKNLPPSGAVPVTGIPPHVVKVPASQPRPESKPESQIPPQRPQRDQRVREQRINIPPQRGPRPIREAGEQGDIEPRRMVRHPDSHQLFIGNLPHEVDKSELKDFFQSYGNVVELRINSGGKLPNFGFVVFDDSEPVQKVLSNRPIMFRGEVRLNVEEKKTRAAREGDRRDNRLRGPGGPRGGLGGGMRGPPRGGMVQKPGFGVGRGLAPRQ
# Constant ends, left off below: GGGAGUUCUACAGUCCGACGAUC … UGGAAUUCUCGGGUGUCAAGG
Oligonucleotide,log2 enrichment
UUUUAAAGUGUUCUCCACCACACUUGGGCAUUUAUCUGUUUCUUUAAAUGGCCUUCUCUGUUUCUUGUUUGCAGGCAGCUAUCAAUGGUG,0.109
CAAGUCCUGUGCUACACAUCGUAUGUACCGAAUCGGGAGGGAAAAAAAGGGUGGGAAAGUAUUAUGUUACGCCGUUCGGAUCUGCACUUC,0.921
UUUAGGUGUUAGACGGUACCGACAACCAGUAUUUGGGCCUGCAGAUUGGACAGCCCCAGGAUGAAGAUGAGGAAGCCACAGGUAUUCUUC,-2.01
UGUGCUACACAUCGUAUGUACCGAAUCGGGGAAAAAAAGGGGAAAAAAAGGGAAAAAAAGGGGAAAGUAUUAUGUUACGCCGUUCGGAUC,-0.709
UGGGAGGUGGAUUUUGUUUAUUUUUUUAGCUCAUUUCCAGGGGUGGGAAUUUUUUUUUAAUAUGUGUCAUGAAUAAAGUUGUUUUUGAAU,3.09
CUCAAGUCCUGUGCUACACAUCGUAUGUACCGAAUCGGGGUGGGUGGGGUGGGAAAGUAUUAUGUUACGCCGUUCGGAUCUGCACUUCCA,1.3
UCAUUCUAUACAGCCUUUUGUUUCAUUAGGAUCAGGCAGCUAGAGACAUGAAGAGGCUUGAAGAAAAGGACAAGGAAAGAAAAAACGUAA,-2.27
AGUCCUGUGCUACACAUCGUAUGUACCGAAUCGGCCCCGGGGCCCCGGGCCCCGGGGAAAGUAUUAUGUUACGCCGUUCGGAUCUGCACU,-2.88
CUCAAGUCCUGUGCUACACAUCGUAUGUACCGAAUCGGAAGGAAGGGGAAGGGGAAAGUAUUAUGUUACGCCGUUCGGAUCUGCACUUCC,-0.947

# Series 2 — target: CCNA1, cyclin fold, Cln2 fusion (human); method: yeast growth competition, sequencing; medium: yeast; notes: weak parent motif; baseline: not given; reading: higher = stronger binding
# Parent: GMNC docking peptide (human); KNAKRNLSSEFAN; partner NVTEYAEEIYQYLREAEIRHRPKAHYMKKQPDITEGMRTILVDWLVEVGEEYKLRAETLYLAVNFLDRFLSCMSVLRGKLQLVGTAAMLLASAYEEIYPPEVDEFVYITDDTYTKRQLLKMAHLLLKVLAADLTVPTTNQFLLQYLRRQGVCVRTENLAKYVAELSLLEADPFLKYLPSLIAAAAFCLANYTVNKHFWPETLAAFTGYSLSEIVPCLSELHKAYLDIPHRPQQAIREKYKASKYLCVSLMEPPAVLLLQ
Change,normalised enrichment score
K4V,0.174
F11G,0.23
S9M,0.316
E10N,0.151
F11M,0.535
K4I,0.404
A3F,0.473
A3D,0.167
R5A,0.244
E10I,0.314
E10S,0.0776

# Series 3 — method: protein-binding microarray; form: double-stranded DNA, one strand shown; medium: in vitro; tested at: 2200 nM top; notes: 60-bp whole probe; with: salmon DNA 0.4 mg/ml; baseline: random background probes; reading: higher = stronger binding; constant ends, left off below: GCCTAGCAC … GTCTTGATTCGCTTGACGCTGCTG
# Target: Interferon regulatory factor 7, full length, phosphomimetic (IRF7, Homo sapiens, UniProt Q92985, residues 1-503, S471D/S472D/S475D/S476D/S477D/S483D/S484D/S487D)
# Residues (chain): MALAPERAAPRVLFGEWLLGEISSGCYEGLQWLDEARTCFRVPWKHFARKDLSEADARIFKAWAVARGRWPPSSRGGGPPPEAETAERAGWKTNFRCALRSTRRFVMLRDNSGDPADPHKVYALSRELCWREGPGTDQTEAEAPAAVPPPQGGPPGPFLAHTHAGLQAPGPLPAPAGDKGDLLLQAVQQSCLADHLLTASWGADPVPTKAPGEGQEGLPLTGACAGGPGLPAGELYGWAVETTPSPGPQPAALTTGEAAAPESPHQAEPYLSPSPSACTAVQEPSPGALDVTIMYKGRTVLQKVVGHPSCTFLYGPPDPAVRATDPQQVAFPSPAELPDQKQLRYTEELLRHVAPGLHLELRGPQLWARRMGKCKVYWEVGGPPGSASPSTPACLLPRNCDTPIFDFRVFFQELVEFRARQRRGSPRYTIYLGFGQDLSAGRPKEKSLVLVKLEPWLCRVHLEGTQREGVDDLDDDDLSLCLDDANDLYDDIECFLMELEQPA
Oligonucleotide,fitted relative affinity
GACCAACTGAGTATCGAGACGTGCTAG,-0.0542 z-score
TTAGCTTTCGGTATCGGTTAGTGCTAG,7.83 z-score
TTAGGTTGCCTTTTCCTTTAGTGCTAG,1.7 z-score
TCACTTCTGGTGCTCATACTGTGCTAG,1.53 z-score
TGGGTTTTCAGCTGTTTTTCTGTGCTA,1.07 z-score
TTAGGTTTCGGTTTCGCTTAGTGCTAG,14.9 z-score
TTAGGTTTCGGGTTTCGGTTCGTGCTA,13.7 z-score
TTAGCTTTCGGTTTCGGTTAGTGCTAG,17.7 z-score

# Mixed results
Molecule,target,test,system,conditions,how to read,endpoint,result
"PhoQ, residues 284 288 289 292 302 303 ALAMYF","PhoP, residues 12 14 15 18 19 QYFSL (Escherichia coli, UniProt P23836)","Sort-seq, refers to: YFP reporter",E. coli,"PhoQ-PhoP variant library, with: 10 µM Mg2+","baseline: high Mg2+ state, higher = stronger signaling",fold induction,5.77

# Some of these lines once more (series 1):
Oligonucleotide,log2 enrichment
AGUCCUGUGCUACACAUCGUAUGUACCGAAUCGGCCCCGGGGCCCCGGGCCCCGGGGAAAGUAUUAUGUUACGCCGUUCGGAUCUGCACU,-2.88
UUUAGGUGUUAGACGGUACCGACAACCAGUAUUUGGGCCUGCAGAUUGGACAGCCCCAGGAUGAAGAUGAGGAAGCCACAGGUAUUCUUC,-2.01
UCAUUCUAUACAGCCUUUUGUUUCAUUAGGAUCAGGCAGCUAGAGACAUGAAGAGGCUUGAAGAAAAGGACAAGGAAAGAAAAAACGUAA,-2.27
